Assay results pooled from the literature.
Each line is one published result; not all experiments were run side by side.
Cell line: HUVEC

Structure (SMILES) | test | setting | how to read | quantity | value
CC[C@@H](C)[C@H]1NC(=O)[C@@H]([C@H](C)O)NC(=O)[C@@H](Cc2c[nH]cn2)NC(=O)CNC(=O)[C@@H](CCCNC(=N)N)NC(=O)CNC(=O)[C@@H](Cc2ccccc2)NC1=O | inhibitor, immunofluorescence | 100 nM, 1 h pretreatment, with: VEGF 200 ng/mL for 30 min |  | VEGF-induced cytoskeletal changes | inhibited
COc1ccc2cc3[n+](cc2c1OCc1cn(Cc2c(Cl)cc(Cl)cc2Cl)nn1)CCc1cc2c(cc1-3)OCO2 | cell growth or viability, MTT |  |  | IC50 | 30.5 µM
CNC(=O)c1c(C)oc2cc(Oc3ncnc4cc(OC)c(OCCCCCCC(=O)NO)cc34)ccc12 | tube formation | 2.5 µM, 72 h | reference: control | tubule length | 77%
COc1ccc2cc3[n+](cc2c1OCc1cn(Cc2ccc(C#N)cc2)nn1)CCc1cc2c(cc1-3)OCO2 | cell growth or viability, MTT |  |  | IC50 | 47.3 µM
CC(C)(C)c1cc2c(O)c(c1)Cc1cc(C(C)(C)C)cc(c1OCC(=O)Nc1cccc3cccnc13)Cc1cc(C(C)(C)C)cc(c1O)Cc1cc(C(C)(C)C)cc(c1OCC(=O)Nc1cccc3cccnc13)COC2 | cell growth or viability, MTT | 15 µM, 72 h |  | inhibition | 23%
COc1ccc2cc3[n+](cc2c1OCc1cn(Cc2c(Cl)cccc2Cl)nn1)CCc1cc2c(cc1-3)OCO2 | cell growth or viability, MTT |  |  | IC50 | 20.9 µM
Cc1ccc(C(C)C)cc1.O=C(N=P(c1ccccc1)(c1ccccc1)c1ccccc1)c1ccccn1.[Cl-].[Cl][Ru+] |  |  |  | IC10 | 1.2 µM
COc1ccc2cc3[n+](cc2c1OCc1cn(Cc2c(F)cccc2F)nn1)CCc1cc2c(cc1-3)OCO2 | cell growth or viability, MTT |  |  | IC50 | 46.2 µM
CC(C)(C)c1cc2c(O)c(c1)Cc1cc(C(C)(C)C)cc(c1OCC(=O)Nc1nccs1)Cc1cc(C(C)(C)C)cc(c1O)Cc1cc(C(C)(C)C)cc(c1OCC(=O)Nc1nccs1)COC2 | cell growth or viability, MTT | 15 µM, 72 h |  | inhibition | 43%
CC(=O)N[C@@H](CCCCN)C(=O)N[C@@H](Cc1c[nH]c2ccccc12)C(=O)N[C@@H](Cc1ccccc1)C(=O)N[C@@H](CCC(=O)O)C(=O)N[C@H](C(=O)N[C@@H](Cc1c[nH]c2ccccc12)C(=O)N[C@@H](Cc1ccccc1)C(=O)N[C@H](C(=O)N[C@@H](CCC(=O)O)C(=O)N[C@@H](Cc1c[nH]c2ccccc12)C(=O)N1CCC[C@H]1C(=O)N[C@@H](CCCCN)C(=O)N[C@@H](CCCCN)C(=O)N[C@@H](CCCNC(=N)N)C(=O)N[C@@H](CCCCN)C(=O)NCCS)[C@@H](C)O)[C@@H](C)O | cyclin B1 protein, western blot | antisense delivery | reference: Lipofectamine over compound | IC50 ratio | 15 fold
O=Cc1c(O)ccc2ccccc12 | RNA sequencing, item: PPP1R16B | 75 µM, 24 h | reference: DMSO | log2 fold change | -4.24
C/C=C(/C)C(=O)OC[C@H]1[C@@H](Cc2ccc(C(C)(C)C)cc2)CO[C@@H]1c1ccc(F)cc1 |  | 30 µM |  | proliferation | no effect
CC(C)(C)c1cc2c(O)c(c1)Cc1cc(C(C)(C)C)cc(c1OCC(=O)NCc1ccncc1)Cc1cc(C(C)(C)C)cc(c1O)Cc1cc(C(C)(C)C)cc(c1OCC(=O)NCc1ccncc1)COC2 | cell growth or viability, MTT | 15 µM, 72 h |  | inhibition | 25%
COc1cccc(Cn2cc(COc3c(OC)ccc4cc5[n+](cc34)CCc3cc4c(cc3-5)OCO4)nn2)c1 | cell growth or viability, MTT |  |  | IC50 | 61.7 µM
CC(C)(C)c1cc2c(O)c(c1)Cc1cc(C(C)(C)C)cc(c1OCC(=O)Nc1ccncc1)Cc1cc(C(C)(C)C)cc(c1O)Cc1cc(C(C)(C)C)cc(c1OCC(=O)Nc1ccncc1)COC2 | cell growth or viability, MTT | 15 µM, 72 h |  | inhibition | 24%
CC[C@H](NC(=O)[C@H](Cc1ccccc1)NC(=O)[C@H](CCSC)NC(=O)[C@H](Cc1ccccc1)NC(=O)[C@@H]1CCCN1C(=O)[C@H](CCSC)NC(=O)[C@@H](NC(=O)[C@H](CO)NC(=O)[C@H](Cc1ccccc1)NC(=O)[C@H](CCCNC(=N)N)NC(=O)[C@H](CCCNC(=N)N)NC(=O)[C@@H](N)CC(C)C)[C@@H](C)O)C(=O)N[C@@H](CC(N)=O)C(=O)N[C@H](C(=O)N[C@@H](CC(N)=O)C(=O)N[C@H](C(N)=O)C(C)C)[C@@H](C)CC | real-time impedance | concentration not given |  | migration inhibition | 18%

For quick reference, copied from above:
Structure (SMILES) | test | setting | how to read | quantity | value
COc1ccc2cc3[n+](cc2c1OCc1cn(Cc2c(F)cccc2F)nn1)CCc1cc2c(cc1-3)OCO2 | cell growth or viability, MTT |  |  | IC50 | 46.2 µM
CC(C)(C)c1cc2c(O)c(c1)Cc1cc(C(C)(C)C)cc(c1OCC(=O)Nc1nccs1)Cc1cc(C(C)(C)C)cc(c1O)Cc1cc(C(C)(C)C)cc(c1OCC(=O)Nc1nccs1)COC2 | cell growth or viability, MTT | 15 µM, 72 h |  | inhibition | 43%
